Experimental data of several laboratories.
Lines come from different studies, so protocols differ. “And” joins repeats or separate records; there may be more than shown. ± marks the error that the study gave.
IFIT1: Antiviral innate immune response effector IFIT1 (IFIT1, Homo sapiens, UniProt P09914)
Chain of UniProt P09914 (whole entry, looked up): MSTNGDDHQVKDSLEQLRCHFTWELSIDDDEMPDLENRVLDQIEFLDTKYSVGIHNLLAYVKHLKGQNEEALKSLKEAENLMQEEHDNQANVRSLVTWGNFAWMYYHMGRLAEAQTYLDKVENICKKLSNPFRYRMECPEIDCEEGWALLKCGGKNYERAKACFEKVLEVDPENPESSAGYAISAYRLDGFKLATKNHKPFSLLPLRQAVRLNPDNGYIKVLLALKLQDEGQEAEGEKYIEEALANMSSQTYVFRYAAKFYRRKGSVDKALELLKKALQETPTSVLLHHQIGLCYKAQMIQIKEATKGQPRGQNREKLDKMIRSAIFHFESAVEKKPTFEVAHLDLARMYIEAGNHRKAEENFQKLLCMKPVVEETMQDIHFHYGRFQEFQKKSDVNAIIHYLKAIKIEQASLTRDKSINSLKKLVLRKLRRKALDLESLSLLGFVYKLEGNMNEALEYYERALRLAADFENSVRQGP
VHL with elongin B/C: von Hippel-Lindau disease tumor suppressor, with elongin B/C (VHL, Homo sapiens, UniProt P40337)
Chain of UniProt Q9SZU7 (whole entry, unmodified, looked up): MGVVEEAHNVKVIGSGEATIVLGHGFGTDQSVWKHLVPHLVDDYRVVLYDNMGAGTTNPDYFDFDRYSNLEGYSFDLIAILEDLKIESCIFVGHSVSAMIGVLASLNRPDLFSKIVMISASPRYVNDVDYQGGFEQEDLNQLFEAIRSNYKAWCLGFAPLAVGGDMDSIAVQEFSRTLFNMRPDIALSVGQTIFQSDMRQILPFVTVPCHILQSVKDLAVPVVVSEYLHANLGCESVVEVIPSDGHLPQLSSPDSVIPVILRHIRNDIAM
Chain of UniProt O95931 (whole entry, looked up): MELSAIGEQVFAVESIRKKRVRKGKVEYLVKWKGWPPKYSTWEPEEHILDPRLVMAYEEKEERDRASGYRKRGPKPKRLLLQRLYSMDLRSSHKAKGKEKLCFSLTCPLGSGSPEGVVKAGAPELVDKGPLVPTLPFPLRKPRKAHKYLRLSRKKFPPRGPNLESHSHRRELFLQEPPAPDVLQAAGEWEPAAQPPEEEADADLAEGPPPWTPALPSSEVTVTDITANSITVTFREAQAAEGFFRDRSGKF
Chain of UniProt Q15059 (whole entry, looked up): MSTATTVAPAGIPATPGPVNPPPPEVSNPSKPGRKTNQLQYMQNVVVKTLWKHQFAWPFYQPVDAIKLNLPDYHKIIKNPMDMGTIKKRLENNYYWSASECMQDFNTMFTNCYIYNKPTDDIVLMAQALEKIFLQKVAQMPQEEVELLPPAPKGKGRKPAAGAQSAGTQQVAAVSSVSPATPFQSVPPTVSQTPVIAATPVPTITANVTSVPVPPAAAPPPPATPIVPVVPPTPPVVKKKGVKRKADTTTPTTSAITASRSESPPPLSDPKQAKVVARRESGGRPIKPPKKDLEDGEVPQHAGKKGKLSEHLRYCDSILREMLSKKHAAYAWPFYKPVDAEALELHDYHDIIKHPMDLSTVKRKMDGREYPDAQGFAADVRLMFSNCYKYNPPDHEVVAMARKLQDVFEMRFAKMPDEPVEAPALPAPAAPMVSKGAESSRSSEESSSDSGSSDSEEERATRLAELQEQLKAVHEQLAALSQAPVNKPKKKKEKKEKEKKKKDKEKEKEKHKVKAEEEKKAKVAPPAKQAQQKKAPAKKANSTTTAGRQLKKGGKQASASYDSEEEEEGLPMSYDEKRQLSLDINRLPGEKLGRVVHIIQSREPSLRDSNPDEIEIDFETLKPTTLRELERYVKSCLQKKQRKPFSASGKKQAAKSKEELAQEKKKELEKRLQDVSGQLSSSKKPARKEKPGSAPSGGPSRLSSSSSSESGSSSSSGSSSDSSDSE
Chain of UniProt Q7Z569 (whole entry, looked up): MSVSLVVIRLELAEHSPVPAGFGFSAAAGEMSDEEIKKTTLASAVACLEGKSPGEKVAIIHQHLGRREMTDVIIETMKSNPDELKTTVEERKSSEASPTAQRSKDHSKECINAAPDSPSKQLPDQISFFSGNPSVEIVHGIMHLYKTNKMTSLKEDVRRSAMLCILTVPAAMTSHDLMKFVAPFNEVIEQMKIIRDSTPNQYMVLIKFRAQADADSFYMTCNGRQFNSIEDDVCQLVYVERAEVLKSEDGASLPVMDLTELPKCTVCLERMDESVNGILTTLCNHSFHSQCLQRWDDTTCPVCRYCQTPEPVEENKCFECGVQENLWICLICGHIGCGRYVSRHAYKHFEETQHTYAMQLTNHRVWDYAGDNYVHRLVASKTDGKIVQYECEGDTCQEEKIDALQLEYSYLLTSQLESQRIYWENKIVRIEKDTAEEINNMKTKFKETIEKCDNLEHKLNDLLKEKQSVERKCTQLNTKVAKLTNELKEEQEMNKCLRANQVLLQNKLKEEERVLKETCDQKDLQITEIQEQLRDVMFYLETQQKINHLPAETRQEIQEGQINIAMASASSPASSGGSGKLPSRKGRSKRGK
Chain of UniProt P00915 (whole entry, looked up): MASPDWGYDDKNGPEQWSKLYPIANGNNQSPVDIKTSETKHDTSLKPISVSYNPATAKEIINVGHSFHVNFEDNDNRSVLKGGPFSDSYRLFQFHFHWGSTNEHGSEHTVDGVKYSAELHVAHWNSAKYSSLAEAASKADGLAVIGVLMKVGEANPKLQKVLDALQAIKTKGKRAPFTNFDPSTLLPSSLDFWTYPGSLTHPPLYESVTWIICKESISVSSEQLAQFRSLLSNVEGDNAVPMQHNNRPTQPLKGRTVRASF
Chain of UniProt Q2FZQ3 (whole entry, looked up): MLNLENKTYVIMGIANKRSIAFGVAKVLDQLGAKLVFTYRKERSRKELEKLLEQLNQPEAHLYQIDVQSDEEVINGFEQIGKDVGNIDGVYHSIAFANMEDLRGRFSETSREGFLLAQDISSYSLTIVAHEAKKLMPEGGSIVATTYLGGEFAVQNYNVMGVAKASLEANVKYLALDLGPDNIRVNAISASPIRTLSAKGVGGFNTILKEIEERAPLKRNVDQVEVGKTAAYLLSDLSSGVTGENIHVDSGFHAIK
Chain of UniProt Q8TF76 (whole entry, looked up): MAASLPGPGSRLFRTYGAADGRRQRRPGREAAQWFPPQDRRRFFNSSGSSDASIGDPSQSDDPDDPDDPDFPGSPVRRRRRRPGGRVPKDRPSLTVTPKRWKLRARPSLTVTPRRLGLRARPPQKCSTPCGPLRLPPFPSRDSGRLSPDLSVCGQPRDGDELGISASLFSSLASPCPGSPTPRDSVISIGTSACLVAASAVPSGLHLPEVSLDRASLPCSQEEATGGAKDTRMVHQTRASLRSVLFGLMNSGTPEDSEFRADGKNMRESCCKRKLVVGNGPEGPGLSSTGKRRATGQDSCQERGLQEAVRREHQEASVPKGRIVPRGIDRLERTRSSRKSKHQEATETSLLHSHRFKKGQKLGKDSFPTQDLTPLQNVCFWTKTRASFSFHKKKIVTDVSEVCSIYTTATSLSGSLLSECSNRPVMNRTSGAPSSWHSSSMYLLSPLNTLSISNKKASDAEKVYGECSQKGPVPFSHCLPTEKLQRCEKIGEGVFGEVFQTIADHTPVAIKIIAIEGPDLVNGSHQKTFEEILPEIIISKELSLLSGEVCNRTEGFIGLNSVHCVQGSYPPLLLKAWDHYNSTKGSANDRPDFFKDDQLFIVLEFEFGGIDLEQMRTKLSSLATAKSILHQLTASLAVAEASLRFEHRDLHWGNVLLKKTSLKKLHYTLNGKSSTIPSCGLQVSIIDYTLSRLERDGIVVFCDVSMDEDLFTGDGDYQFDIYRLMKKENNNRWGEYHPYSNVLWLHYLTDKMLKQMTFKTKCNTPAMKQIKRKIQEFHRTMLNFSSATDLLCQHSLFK
Chain of UniProt P02754 (whole entry, unmodified, looked up): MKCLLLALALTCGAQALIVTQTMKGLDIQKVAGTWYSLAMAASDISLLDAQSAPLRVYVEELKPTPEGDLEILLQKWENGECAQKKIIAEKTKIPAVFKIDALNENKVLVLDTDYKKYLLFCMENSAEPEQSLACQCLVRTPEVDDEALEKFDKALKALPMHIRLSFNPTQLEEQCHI
Chain of UniProt Q96CN7 (whole entry, looked up): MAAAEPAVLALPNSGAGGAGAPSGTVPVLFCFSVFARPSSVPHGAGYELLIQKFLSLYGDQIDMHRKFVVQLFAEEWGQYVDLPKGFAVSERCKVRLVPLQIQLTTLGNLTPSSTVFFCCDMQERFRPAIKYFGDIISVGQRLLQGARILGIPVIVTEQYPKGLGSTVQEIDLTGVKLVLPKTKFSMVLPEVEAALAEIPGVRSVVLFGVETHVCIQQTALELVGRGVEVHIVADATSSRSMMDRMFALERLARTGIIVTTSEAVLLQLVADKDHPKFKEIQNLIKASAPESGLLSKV
Chain of UniProt P20273 (whole entry, looked up): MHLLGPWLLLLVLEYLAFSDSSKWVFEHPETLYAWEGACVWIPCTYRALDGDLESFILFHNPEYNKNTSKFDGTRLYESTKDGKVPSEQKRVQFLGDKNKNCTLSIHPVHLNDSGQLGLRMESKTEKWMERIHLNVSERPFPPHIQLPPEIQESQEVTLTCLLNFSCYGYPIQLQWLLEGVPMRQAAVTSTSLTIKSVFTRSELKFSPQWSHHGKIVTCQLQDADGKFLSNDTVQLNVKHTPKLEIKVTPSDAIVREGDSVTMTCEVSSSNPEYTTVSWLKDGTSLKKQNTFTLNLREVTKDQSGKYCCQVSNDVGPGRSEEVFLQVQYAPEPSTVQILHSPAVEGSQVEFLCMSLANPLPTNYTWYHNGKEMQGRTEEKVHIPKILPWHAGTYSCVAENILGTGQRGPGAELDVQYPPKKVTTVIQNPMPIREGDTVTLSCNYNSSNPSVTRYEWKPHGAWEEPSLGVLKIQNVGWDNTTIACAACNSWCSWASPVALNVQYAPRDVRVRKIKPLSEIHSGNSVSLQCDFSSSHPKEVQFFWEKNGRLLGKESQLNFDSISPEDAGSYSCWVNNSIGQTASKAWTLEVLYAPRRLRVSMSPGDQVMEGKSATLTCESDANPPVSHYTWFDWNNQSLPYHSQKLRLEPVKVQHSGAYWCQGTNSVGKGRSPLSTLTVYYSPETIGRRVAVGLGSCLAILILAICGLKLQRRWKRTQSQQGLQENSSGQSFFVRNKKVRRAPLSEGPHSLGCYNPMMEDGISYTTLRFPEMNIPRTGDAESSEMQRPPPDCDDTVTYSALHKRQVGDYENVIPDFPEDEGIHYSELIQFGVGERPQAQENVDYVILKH

Cc1c[nH]c2nccc(-c3ccc(C(=O)N[C@@H]4c5c(F)cc(C(F)F)cc5C[C@@H]4O)cn3)c12 — Kd (Serine/threonine-protein kinase haspin (HASPIN, Homo sapiens, UniProt Q8TF76); binding, competition with immobilised ligand): 0.382 µM
COc1cc(N2CCN(C)CC2)ccc1Nc1ncc2c(n1)N(C)c1ccc(C)cc1C(=O)N2CC(F)(F)F — Kd (Serine/threonine-protein kinase DCLK1 (DCLK1, Homo sapiens, UniProt O15075); binding, ITC): > 3 µM
O=c1c2sccc2n(CC2COc3ccccc3O2)c(=O)n1O (stereo not shown) — Kd (Flap endonuclease 1 (Homo sapiens, UniProt P39748); ITC; pH 7.5, 25 °C, with: 8 mM Mg2+): 0.182 µM
C[n+]1cn([C@@H]2O[C@H](COP(=O)(O)OP(=O)([O-])OP(=O)(O)OC[C@H]3O[C@@H](n4ccc(=O)[nH]c4=O)[C@H](O)[C@@H]3OP(=O)(O)OC[C@H]3O[C@@H](n4cnc5c(=O)[nH]c(N)nc54)[C@H](O)[C@@H]3O)[C@@H](O)[C@H]2O)c2nc(N)nc(O)c21 — Kd (IFIT1; binding, microscale thermophoresis; pH 7.5): 390 µM
CC(=O)NCCN(c1nc(N2CC3C(CCOc4cc(-c5scnc5C)ccc4CNC(=O)[C@@H]4C[C@@H](O)CN4C(=O)[C@@H](NC(=O)C4(F)CC4)C(C)(C)C)C3C2)nc(N2CC(n3ccnc3)C2)n1)C(C)C (stereo partly shown) — Kd (VHL with elongin B/C; binary binding, SPR): 0.034 µM
CNc1ncnc2c1ncn2[C@@H]1O[C@H](COP(=O)(O)OP(=O)([O-])OP(=O)(O)OC[C@H]2O[C@@H](n3c[n+](C)c4c(O)nc(N)nc43)[C@H](O)[C@@H]2O)[C@@H](OP(=O)(O)OC[C@H]2O[C@@H](n3cnc4c(=O)[nH]c(N)nc43)[C@H](O)[C@@H]2O)[C@H]1O — Kd (IFIT1; binding, microscale thermophoresis; pH 7.5, 70 nt capped RNA): 0.23 µM
CC(=O)N1c2ccc(-c3ccc(CNC(=O)c4cn5cc(-c6cnc(N)nc6)nc(N6CCOCC6)c5n4)cc3)cc2CC[C@@H]1C — Kd (Bromodomain-containing protein 3, BD2 (BRD3, Homo sapiens, UniProt Q15059); binding, competition with immobilised ligand): 0.0006 µM
CC(=O)N[C@H]1[C@H]([C@H](O)[C@H](O)CNC(=O)c2ccc(-c3ccccc3)cc2)O[C@@](OCc2cccc(Cl)c2Cl)(C(=O)O)C[C@@H]1O — Kd (B-cell receptor CD22 (CD22, Homo sapiens, UniProt P20273); binding, ITC): 0.63 µM
COc1ccc(Cn2ccc3ccc(C(=O)NO)cc32)cc1 — Kd (Isochorismatase domain-containing protein 1 (Homo sapiens, UniProt Q96CN7); inhibitor, competition pulldown; SW620 and MV4-11 lysate; 1 h): > 30.2 µM
CCN(CC)CCCC[C@H](NC(=O)[C@H](CC(C)C)NC(=O)[C@H](C)NC(=O)[C@H](Cc1ccccc1)NC(=O)c1ccc(C(C)(C)C)cc1)C(=O)N[C@@H](CO)C(=O)O — Kd (Chromobox protein homolog 7 (Homo sapiens, UniProt O95931); binding, ITC): 0.41 µM
O=C(O)[C@@H]1O[C@@H](O[C@H]2[C@H](O)[C@H](O)[C@H](O[C@H]3[C@H](O)[C@H](O)[C@H](O[C@H]4[C@H](O)[C@H](O)[C@H](O)O[C@H]4C(=O)O)O[C@H]3C(=O)O)O[C@H]2C(=O)O)[C@@H](O)[C@@H](O)[C@@H]1O — Kd (Beta-lactoglobulin (LGB, Bos taurus, UniProt P02754, A134V/G80D); isothermal titration calorimetry; pH 4.00, 37 °C, 50 mM KH2PO4): 198 µM
O=C(O)CCC(=O)c1cccc(NS(=O)(=O)c2c[nH]c3ncccc23)c1 — Kd (BRCA1-associated protein, ZnF-UBD domain (BRAP, Homo sapiens, UniProt Q7Z569)): 413 µM
C[n+]1cn([C@@H]2O[C@H](COP(=O)(O)OP(=O)([O-])OP(=O)(O)OC[C@H]3O[C@@H](n4cnc5c(N)ncnc54)[C@H](O)[C@@H]3OP(=O)(O)OC[C@H]3O[C@@H](n4cnc5c(=O)[nH]c(N)nc54)[C@H](O)[C@@H]3O)[C@@H](O)[C@H]2O)c2nc(N)nc(O)c21 — Kd (IFIT1; microscale thermophoresis; pH 7.5, with: unstructured cap II RNA, 35 nt): 0.015 µM
c1ccc(COc2[nH]cnc3ncnc2-3)cc1 — Kd (Inositol-tetrakisphosphate 1-kinase (Homo sapiens, UniProt Q13572); binding): 2.6 ± 1 µM
Cc1cccc2c1N(C(=O)n1ccnn1)CC2 — Kd (KAI2 (Arabidopsis thaliana, UniProt Q9SZU7, L218I); ITC; L218I mutant): 21.4 µM and 26.1 µM and 31.4 µM
CCc1nc2cc3ccccc3cc2cc1C(=O)N1CCC[C@H]1C(=O)N[C@@H](C/C=C/C[C@H](NC(=O)[C@@H]1CCCN1C(=O)c1cc2cc3ccccc3cc2nc1CC)C(=O)N[C@@H](CCCCN)C(=O)NCCCN)C(=O)N[C@@H](CCCCN)C(=O)NCCCN — Kd (CUG–CAG duplex RNA; SPR): 0.188 µM
Nc1nc2c(ncn2[C@@H]2O[C@H](COP(=O)(O)O[C@H]3[C@@H](O)[C@H](n4ccc(=O)[nH]c4=O)O[C@@H]3COP(=O)(O)OP(=O)(O)OP(=O)(O)O)[C@@H](O)[C@H]2O)c(=O)[nH]1 — Kd (IFIT1; binding, microscale thermophoresis; pH 7.5, 70 nt capped RNA): 0.27 µM
CC(=O)c1cnc2ccc(-c3cc(Cl)c(O)c(Cl)c3)nc2c1N[C@H]1CC[C@H](CN(C)C)CC1 — Kd (Receptor-like protein kinase FERONIA (FER, Arabidopsis thaliana, UniProt Q9SCZ4, D679A); binding, SPR; mutant protein): 3 µM
CO[C@@H]1[C@H](OP(=O)(O)OC[C@H]2O[C@@H](n3cnc4c(=O)[nH]c(N)nc43)[C@H](O)[C@@H]2O)[C@@H](COP(=O)(O)OP(=O)([O-])OP(=O)(O)OC[C@H]2O[C@@H](n3c[n+](C)c4c(O)nc(N)nc43)[C@H](O)[C@@H]2O)O[C@H]1n1cnc2c(N)ncnc21 — Kd (IFIT1; binding, microscale thermophoresis; pH 7.5): 380 µM
Cc1ncsc1-c1ccc(CNC(=O)[C@@H]2C[C@@H](O)CN2C(=O)[C@@H](NC(=O)COCC(C)(COCCOCCOCCNC(=O)C[C@@H]2N=C(c3ccc(Cl)cc3)c3c(sc(C)c3C)-n3c(C)nnc32)COCCOCCOCCNC(=O)C[C@@H]2N=C(c3ccc(Cl)cc3)c3c(sc(C)c3C)-n3c(C)nnc32)C(C)(C)C)cc1 — Kd (von Hippel-Lindau disease tumor suppressor, with Elongin B/C (VHL, Homo sapiens, UniProt P40337); binding, SPR; binary, immobilized VCB complex): 0.624 ± 0.084 µM
COC(=O)CCCNC(=O)c1cc(S(N)(=O)=O)c(Cl)cc1NC1CCCCC1 — Kd (Carbonic anhydrase 1 (CA1, Homo sapiens, UniProt P00915); pH 7): 8.3 µM
CNc1ncnc2c1ncn2[C@@H]1O[C@H](COP(=O)(O)OP(=O)([O-])OP(=O)(O)OC[C@H]2O[C@@H](n3c[n+](C)c4c(O)nc(N)nc43)[C@H](O)[C@@H]2O)[C@@H](OP(=O)(O)OC[C@H]2O[C@@H](n3cnc4c(=O)[nH]c(N)nc43)[C@H](O)[C@@H]2O)[C@H]1OC — Kd (IFIT1; binding, microscale thermophoresis; pH 7.5, 70 nt capped RNA): 0.9 µM
Cc1ncsc1-c1ccc(CNC(=O)[C@@H]2C[C@@H](O)CN2C(=O)[C@@H](NC(=O)C2(F)CC2)C(C)(C)C)c(OCCC2CCN(c3nc(NCC(C)(C)C4(O)CCOC4)nc(N4CCC[C@H]4Cn4ccnn4)n3)CC2)c1 (stereo partly shown) — Kd (VHL with elongin B/C; binary binding, SPR): 0.0082 µM
Nc1nc2c(ncn2[C@@H]2O[C@H](COP(=O)(O)O[C@H]3[C@@H](O)[C@H](n4cnc5c(N)ncnc54)O[C@@H]3COP(=O)(O)OP(=O)(O)OP(=O)(O)OC[C@H]3O[C@@H](n4cnc5c(=O)[nH]c(N)nc54)[C@H](O)[C@@H]3O)[C@@H](O)[C@H]2O)c(=O)[nH]1 — Kd (IFIT1; binding, microscale thermophoresis; pH 7.5, 70 nt capped RNA): 0.011 µM
CCc1nc2cc3ccccc3cc2cc1C(=O)N[C@@H](CCCCN)C(=O)N[C@@H](C/C=C/C[C@H](NC(=O)[C@H](CCCCN)NC(=O)c1cc2cc3ccccc3cc2nc1CC)C(=O)N1CCC[C@H]1C(=O)NCCCN)C(=O)N1CCC[C@H]1C(=O)NCCCN — Kd (CUG–CAG duplex RNA; SPR): 0.0706 µM
Cc1c2c(nn1C)CSCc1cc(n(C)n1)CSc1cc(c3ccccc3c1)OCCCc1c(C(=O)O)n(C)c3c-2c(Cl)ccc13 — Kd (Enoyl-[acyl-carrier-protein] reductase [NADPH] FabI (Staphylococcus aureus, UniProt Q2FZQ3); binding, BLI): 10900 µM
CC(=O)NCCN(c1nc(NCc2n[nH]c3c2CCCC3)nc(N2CC3C(CCOc4cc(-c5scnc5C)ccc4CNC(=O)[C@@H]4C[C@@H](O)CN4C(=O)[C@@H](NC(=O)C4(F)CC4)C(C)(C)C)C3C2)n1)C(C)C (stereo partly shown) — Kd (VHL with elongin B/C; binary binding, SPR): 0.037 µM
BP(=O)(OC[C@H]1O[C@@H](n2cnc3c(=O)[nH]c(N)nc32)[C@H](O)[C@@H]1O)OP(=O)([O-])OP(=O)(O)OC[C@H]1O[C@@H](n2c[n+](C)c3c(O)nc(N)nc32)[C@H](O)[C@@H]1O (stereo partly shown) — Kd (Eukaryotic translation initiation factor 4E, residues 28-217 (Eif4e, Mus musculus, UniProt P63073); cap binding, fluorescence quenching titration): 0.07 µM

Excerpt of the above:
CCc1nc2cc3ccccc3cc2cc1C(=O)N[C@@H](CCCCN)C(=O)N[C@@H](C/C=C/C[C@H](NC(=O)[C@H](CCCCN)NC(=O)c1cc2cc3ccccc3cc2nc1CC)C(=O)N1CCC[C@H]1C(=O)NCCCN)C(=O)N1CCC[C@H]1C(=O)NCCCN — Kd (CUG–CAG duplex RNA; SPR): 0.0706 µM
Cc1c2c(nn1C)CSCc1cc(n(C)n1)CSc1cc(c3ccccc3c1)OCCCc1c(C(=O)O)n(C)c3c-2c(Cl)ccc13 — Kd (Enoyl-[acyl-carrier-protein] reductase [NADPH] FabI (Staphylococcus aureus, UniProt Q2FZQ3); binding, BLI): 10900 µM
